Measurements from different studies.
Protocols differ between the studies behind these lines. ± marks the error that the study gave.
IDO1: Indoleamine 2,3-dioxygenase 1 (IDO1, Homo sapiens, UniProt P14902)
Sequence of UniProt P14902 (whole entry, looked up): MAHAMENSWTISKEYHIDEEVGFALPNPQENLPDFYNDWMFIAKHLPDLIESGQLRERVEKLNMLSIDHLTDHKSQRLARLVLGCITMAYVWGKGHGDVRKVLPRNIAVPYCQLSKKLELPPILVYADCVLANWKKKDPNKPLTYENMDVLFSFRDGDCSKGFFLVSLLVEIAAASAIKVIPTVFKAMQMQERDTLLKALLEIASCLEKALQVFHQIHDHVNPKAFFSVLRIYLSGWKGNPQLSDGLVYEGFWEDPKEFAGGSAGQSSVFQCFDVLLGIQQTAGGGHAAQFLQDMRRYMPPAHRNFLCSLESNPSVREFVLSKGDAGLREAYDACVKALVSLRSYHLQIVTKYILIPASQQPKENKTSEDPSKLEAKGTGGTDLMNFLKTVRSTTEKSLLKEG
AKR1C1: Aldo-keto reductase family 1 member C1 (AKR1C1, Homo sapiens, UniProt Q04828)
Sequence of UniProt Q04828 (whole entry, looked up): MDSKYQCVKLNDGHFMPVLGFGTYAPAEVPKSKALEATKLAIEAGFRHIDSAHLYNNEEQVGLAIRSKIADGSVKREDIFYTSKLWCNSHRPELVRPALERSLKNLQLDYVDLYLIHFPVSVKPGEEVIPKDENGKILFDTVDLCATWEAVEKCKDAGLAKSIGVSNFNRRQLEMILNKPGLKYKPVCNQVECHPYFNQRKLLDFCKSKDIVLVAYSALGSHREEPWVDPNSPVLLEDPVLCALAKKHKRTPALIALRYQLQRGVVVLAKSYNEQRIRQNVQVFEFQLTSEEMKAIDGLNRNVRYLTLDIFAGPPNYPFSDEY
SIRT1: NAD-dependent protein deacetylase sirtuin-1 (SIRT1, Homo sapiens, UniProt Q96EB6)
Sequence of UniProt Q96EB6 (whole entry, looked up): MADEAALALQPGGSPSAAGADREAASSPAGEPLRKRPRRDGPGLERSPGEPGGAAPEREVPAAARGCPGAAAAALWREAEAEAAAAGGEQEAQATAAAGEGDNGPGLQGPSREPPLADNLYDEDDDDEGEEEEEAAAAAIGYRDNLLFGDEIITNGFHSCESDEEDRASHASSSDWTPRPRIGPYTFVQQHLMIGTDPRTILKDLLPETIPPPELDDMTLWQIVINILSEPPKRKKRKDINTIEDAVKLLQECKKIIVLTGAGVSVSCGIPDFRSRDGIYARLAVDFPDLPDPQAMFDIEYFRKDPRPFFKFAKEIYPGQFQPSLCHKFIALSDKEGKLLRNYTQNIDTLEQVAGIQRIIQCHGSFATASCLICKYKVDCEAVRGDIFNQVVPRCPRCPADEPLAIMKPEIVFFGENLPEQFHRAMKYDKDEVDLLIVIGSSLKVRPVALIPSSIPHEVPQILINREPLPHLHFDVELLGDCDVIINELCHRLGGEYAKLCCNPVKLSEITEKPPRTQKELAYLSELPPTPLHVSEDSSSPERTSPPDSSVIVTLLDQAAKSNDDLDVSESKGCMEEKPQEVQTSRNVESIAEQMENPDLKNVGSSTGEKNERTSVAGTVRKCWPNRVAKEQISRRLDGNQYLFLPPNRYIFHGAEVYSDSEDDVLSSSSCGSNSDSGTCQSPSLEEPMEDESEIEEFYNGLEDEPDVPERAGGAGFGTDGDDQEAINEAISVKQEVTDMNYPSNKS
SETD7: Histone-lysine N-methyltransferase SETD7 (SETD7, Homo sapiens, UniProt Q8WTS6)
Sequence of UniProt Q8WTS6 (whole entry, looked up): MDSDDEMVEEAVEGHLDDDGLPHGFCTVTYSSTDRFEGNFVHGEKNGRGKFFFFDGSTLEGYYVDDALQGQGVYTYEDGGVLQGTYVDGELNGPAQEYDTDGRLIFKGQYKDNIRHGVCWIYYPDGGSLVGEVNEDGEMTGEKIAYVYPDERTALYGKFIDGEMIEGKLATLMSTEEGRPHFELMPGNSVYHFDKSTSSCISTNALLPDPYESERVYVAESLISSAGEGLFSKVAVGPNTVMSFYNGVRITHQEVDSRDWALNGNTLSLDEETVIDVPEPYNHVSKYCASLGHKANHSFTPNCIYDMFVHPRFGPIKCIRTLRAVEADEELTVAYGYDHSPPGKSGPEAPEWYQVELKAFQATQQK
PPO3: PPO3 (Agaricus bisporus, UniProt C7FF04)
Sequence of UniProt C7FF04 (whole entry, looked up): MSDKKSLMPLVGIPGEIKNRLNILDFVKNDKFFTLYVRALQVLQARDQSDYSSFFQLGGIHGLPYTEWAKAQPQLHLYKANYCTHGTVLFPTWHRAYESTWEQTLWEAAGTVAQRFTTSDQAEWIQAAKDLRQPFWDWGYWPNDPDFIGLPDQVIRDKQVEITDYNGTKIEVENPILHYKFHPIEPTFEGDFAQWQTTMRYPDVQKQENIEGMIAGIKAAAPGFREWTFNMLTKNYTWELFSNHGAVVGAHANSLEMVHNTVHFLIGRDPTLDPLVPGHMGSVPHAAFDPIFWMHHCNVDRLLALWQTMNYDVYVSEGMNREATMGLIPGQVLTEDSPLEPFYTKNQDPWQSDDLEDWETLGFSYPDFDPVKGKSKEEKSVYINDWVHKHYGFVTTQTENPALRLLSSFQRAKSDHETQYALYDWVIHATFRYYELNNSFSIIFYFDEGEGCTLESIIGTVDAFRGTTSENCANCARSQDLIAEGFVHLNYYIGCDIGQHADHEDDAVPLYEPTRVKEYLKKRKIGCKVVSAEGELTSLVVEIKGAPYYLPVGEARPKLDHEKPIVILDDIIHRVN
TRPV1: Transient receptor potential cation channel subfamily V member 1 (TRPV1, Homo sapiens, UniProt Q8NER1)
Sequence of UniProt Q8NER1 (whole entry, looked up): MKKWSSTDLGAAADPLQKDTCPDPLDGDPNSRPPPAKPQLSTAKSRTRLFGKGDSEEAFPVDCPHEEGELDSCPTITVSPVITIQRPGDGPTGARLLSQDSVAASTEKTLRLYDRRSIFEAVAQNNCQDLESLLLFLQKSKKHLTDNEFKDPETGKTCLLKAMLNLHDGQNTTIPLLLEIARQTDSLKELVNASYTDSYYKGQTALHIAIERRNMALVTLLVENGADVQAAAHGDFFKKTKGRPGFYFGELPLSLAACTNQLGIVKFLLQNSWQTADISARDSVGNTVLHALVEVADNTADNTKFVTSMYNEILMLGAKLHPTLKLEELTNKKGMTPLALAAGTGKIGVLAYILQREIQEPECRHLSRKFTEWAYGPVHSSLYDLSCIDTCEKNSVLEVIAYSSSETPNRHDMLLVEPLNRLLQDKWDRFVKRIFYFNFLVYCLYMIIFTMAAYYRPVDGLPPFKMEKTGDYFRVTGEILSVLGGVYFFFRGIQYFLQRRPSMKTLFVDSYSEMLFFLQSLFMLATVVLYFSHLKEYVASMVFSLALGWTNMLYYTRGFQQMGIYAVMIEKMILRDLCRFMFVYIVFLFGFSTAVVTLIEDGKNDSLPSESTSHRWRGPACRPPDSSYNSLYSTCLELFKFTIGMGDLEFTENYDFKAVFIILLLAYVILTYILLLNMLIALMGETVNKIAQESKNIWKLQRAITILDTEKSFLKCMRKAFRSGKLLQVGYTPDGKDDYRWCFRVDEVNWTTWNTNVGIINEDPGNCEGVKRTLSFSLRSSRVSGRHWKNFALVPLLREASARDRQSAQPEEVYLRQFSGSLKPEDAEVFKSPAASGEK
Sequence of UniProt P22314 (whole entry, looked up): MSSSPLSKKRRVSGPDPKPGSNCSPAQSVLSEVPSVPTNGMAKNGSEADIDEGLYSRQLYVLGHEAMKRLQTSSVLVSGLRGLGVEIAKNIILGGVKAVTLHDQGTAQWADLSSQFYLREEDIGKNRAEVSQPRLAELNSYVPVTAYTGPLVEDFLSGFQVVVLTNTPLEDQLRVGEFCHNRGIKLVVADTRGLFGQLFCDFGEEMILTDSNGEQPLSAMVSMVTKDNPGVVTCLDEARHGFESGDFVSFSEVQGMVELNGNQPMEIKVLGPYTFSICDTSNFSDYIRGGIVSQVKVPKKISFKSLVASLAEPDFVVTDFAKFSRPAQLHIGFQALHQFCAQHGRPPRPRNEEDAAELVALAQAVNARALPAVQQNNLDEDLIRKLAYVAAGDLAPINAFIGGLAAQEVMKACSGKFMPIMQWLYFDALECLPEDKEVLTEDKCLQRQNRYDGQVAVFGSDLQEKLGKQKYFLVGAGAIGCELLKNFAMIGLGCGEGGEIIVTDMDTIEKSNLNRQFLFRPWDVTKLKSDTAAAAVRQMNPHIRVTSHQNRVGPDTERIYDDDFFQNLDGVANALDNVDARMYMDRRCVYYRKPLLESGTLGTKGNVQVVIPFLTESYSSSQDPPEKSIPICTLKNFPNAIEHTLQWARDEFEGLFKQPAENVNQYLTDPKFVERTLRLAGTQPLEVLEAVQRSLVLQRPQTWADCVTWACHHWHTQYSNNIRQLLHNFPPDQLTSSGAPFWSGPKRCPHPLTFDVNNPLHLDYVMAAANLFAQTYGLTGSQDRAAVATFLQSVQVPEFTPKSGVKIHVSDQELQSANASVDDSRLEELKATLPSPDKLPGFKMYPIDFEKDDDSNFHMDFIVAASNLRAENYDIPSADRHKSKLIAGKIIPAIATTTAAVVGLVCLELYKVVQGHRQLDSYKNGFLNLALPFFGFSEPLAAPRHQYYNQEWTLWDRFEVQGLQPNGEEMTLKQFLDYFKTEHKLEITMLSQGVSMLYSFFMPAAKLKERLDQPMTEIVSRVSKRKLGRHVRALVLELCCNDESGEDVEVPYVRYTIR
Sequence of UniProt P32390 (whole entry, looked up): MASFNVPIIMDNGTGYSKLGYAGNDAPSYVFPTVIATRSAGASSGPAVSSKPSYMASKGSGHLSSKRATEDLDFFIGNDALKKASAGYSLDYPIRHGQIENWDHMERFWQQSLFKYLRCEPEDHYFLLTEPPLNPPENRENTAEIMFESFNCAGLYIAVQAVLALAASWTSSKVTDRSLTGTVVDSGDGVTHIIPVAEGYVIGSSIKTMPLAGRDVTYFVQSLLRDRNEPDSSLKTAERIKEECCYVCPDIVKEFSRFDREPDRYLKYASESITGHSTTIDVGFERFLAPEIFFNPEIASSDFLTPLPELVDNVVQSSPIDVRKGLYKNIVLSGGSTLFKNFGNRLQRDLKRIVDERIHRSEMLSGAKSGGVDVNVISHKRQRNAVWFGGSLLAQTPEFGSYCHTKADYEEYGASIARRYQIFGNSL
Sequence of UniProt P30656 (whole entry, looked up): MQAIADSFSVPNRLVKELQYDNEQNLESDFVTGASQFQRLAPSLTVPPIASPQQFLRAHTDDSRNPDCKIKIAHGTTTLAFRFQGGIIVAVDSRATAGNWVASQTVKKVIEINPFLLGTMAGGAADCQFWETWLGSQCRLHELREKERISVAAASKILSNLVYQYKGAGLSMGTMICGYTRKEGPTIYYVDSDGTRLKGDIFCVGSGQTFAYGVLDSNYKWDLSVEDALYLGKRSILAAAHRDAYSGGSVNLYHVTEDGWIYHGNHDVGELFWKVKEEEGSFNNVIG

CCS(=O)(=O)c1ccccc1C(=O)N1CCN(c2nc3ccc(F)cc3s2)C[C@@H]1C — inhibition (MGLL (Homo sapiens, UniProt Q99685); enzyme activity, inhibitor; concentration not given): no effect
COc1cc(OC)c2c(=O)[nH]c(-c3ccc(C4CCCNC4)cc3)nc2c1 (stereo not drawn) — inhibition (Bromodomain-containing protein 4, BD1 and BD2 (BRD4, Homo sapiens, UniProt O60885); TR-FRET; 10 µM): 65%
CCCC[C@H](C)/C=C(C)/C=C/C(=O)O — inhibition (TRPV4 (Homo sapiens, UniProt Q9HBA0); calcium influx, fluorescence calcium; 0.1 to 10 µM, with: hypotonic solution): no effect
O=C1c2c(O)cccc2[C@H]([C@@H]2O[C@H](CO)[C@@H](O)[C@H](O)[C@H]2O)c2cc(CO)cc(O)c21 — inhibition (IDO1; kynurenine formation; 100 µM): 66.59 ± 0.51%
O=C1/C(=C/c2ccc(-c3ccccc3)cc2)Oc2cc(O)ccc21 — inhibition (ERO1-like protein alpha (Homo sapiens, UniProt Q96HE7, C104A/C131A/C166A); enzyme activity, inhibitor, fluorescence; 10 µM): 20.7%
COc1ccc2c(c1Cl)CC[C@@H]1[C@@H]2CC[C@@]2(C)C(=O)CC[C@@H]12 — inhibition (AKR1C1; enzyme activity, inhibitor, absorbance; 100 µM, pH 9): 21.4%
NC(=O)C1CCCc2c1[nH]c1ccc(Cl)cc21 (stereo not drawn) — inhibition (SIRT1; enzyme activity, inhibitor, fluorescence; 10 µM): 98%
COc1cc(C(=O)NC2CCC(N3CCN(CC4CCC5(CCCC5)C4)CC3)CC2)c(F)cc1Nc1ncc2c(n1)N(C1CCCC1(F)F)CC(F)(F)C(=O)N2C (stereo not drawn) — inhibition (ROS1 (Homo sapiens, UniProt P08922); cell-free assay, TR-FRET; 10 µM): 0.66%
CNCCNC(=O)CN1C(=O)Cc2c([nH]c3ccc(Br)cc23)-c2ccc(Cl)cc21 — inhibition (Glutathionylspermidine synthase (Crithidia fasciculata, UniProt P90518); enzyme activity, inhibitor; 300 µM): 20%
Oc1c(C(Nc2nc3ccccc3s2)c2cccc(OCc3ccccc3)c2)ccc2cccnc12 (stereo not drawn) — inhibition (Genome polyprotein, NS2B-NS3 protease (Dengue virus type 2, UniProt P14340); enzyme activity, inhibitor, fluorogenic; 25 µM, 0.1% CHAPS, with: Bz-Nle-Lys-Arg-Arg-AMC substrate): 96.4 ± 1.32%
CCCC[C@H](NC(C)=O)C(=O)N1CCC[C@H]1C(=O)N[C@@H](CO)C(=O)N[C@@H](CO)C(=O)N[C@@H](C)C(=O)N[C@@H](CO)C(=O)N[C@@H](CCCNC(=N)N)C(=O)N[C@@H](CCC(N)=O)C(=O)N[C@@H](CC(C)C)C(=O)N[C@@H](CC(C)C)C(=O)N[C@@H](CCCNC(=N)N)C(=O)N[C@@H](CCCCN)C(=O)N[C@@H](CCC(N)=O)C(=O)N[C@@]1(C)CCCC=CCCC[C@@](C)(C(N)=O)NC(=O)[C@H]([C@@H](C)CC)NC(=O)[C@H](CCC(=O)O)NC(=O)[C@H](CCCCN)NC1=O — inhibition (UBA1 (Homo sapiens, UniProt P22314); ubiquitin thioester transfer to UBE2D2, inhibitor; concentration not given, staple-scanning screen): inactive
C[C@]12CC[C@@H]3c4cc(Br)c(O)c(Br)c4CC[C@H]3[C@@H]1CCC2=O — inhibition (AKR1C1; enzyme activity, inhibitor, absorbance; 10 µM, pH 9): 67%
CC(=O)c1cnc(N)nc1N1CC[C@H]1c1nn2ccc(Cl)c2c(=O)n1-c1ccccc1 — inhibition (CACNA1C (Homo sapiens, UniProt Q13936); ion current, inhibitor; 3 µM): < 10%
OB(O)c1cnn(-c2cc(Cl)ncn2)c1 — inhibition (PRE2 (Saccharomyces cerevisiae S288c, UniProt P30656); 20S proteasome activity; 100 µM, with: Suc-LLVY-AMC): ≤ 20%
NCCC(=O)N[C@@H](Cc1c[nH]c2ccccc12)C(=O)N[C@@H](Cc1ccc(Cl)cc1)C(N)=O — inhibition (Ephrin type-A receptor 4, ectodomain (Epha4, Mus musculus, UniProt Q03137); ephrin-A5 binding, antagonist, ELISA; 500 µM, with: ephrin-A5-AP): 45%
C[C@@H](N)C1CCN(S(=O)(=O)c2cccc3c(=O)[nH]ccc23)CC1 — inhibition (GRK1 (Homo sapiens, UniProt Q15835); cell-free assay, competition with immobilised ligand; 10 µM): > 95%
CC[C@H](C)[C@H](NC(=O)[C@H](CCCNC(=N)N)NC(=O)[C@H](CCCCN)NC(=O)[C@@H]1CCCN1C(=O)[C@@H]1CCCN1CCCN(CC[C@H](N)C(=O)O)C[C@H]1O[C@@H](n2cnc3c(N)ncnc32)[C@H](O)[C@@H]1O)C(=O)N[C@@H](C)C(N)=O — inhibition (SETD7; enzyme activity, inhibitor; 33 µM): < 20%
C[C@]12CC[C@@H]3c4cc(Br)c(O)cc4CC[C@H]3[C@@H]1CCC2=O — inhibition (AKR1C1; enzyme activity, inhibitor, absorbance; 10 µM, pH 9): 51.2%
CCCC[C@@H]1NC(=O)[C@H]([C@@H](C)O)NC(=O)[C@H](CCCNC(=N)N)NC(=O)CNC(=O)CC[C@@H](C(=O)N[C@@H](C)C(=O)N[C@@H](CCCNC(=N)N)C(=O)N[C@@H](CCCCN)C(=O)N[C@@H](CO)C(=O)N[C@H](C(=O)NCC(=O)NCC(N)=O)[C@@H](C)O)NC(=O)[C@H](CCC(N)=O)NC1=O — inhibition (SETD7; enzyme activity, inhibitor, MALDI-TOF MS; 50 µM, 10 min preincubation, 30 min, pH 8, 37 °C, enzyme 500 nM, with: H3 1-21 peptide, SAM 30 µM): 100%
CCCCOc1ccc(C2CC(c3ccc(C)cc3)=Nc3ccccc3S2)cc1OC (stereo not drawn) — inhibition (PPO3; enzyme activity, inhibitor; 25 µg/mL): 63%
C[C@H](NC(=O)c1ccc2c(c1)nc(-c1c(F)cccc1Cl)n2C1CCCCC1)C(=O)O — inhibition (SIRT1; enzyme activity, inhibitor, fluorescence; 10 µM): < 30%
Brc1ccccc1-c1nnc(CSc2nnnn2-c2ccccc2)o1 — inhibition (OPRK1 (Homo sapiens, UniProt P41145); ligand displacement, radioligand; 10 µM): 85%
Cc1ccc(C2=Nc3ccccc3SC(c3ccc([N+](=O)[O-])cc3)C2)cc1 (stereo not drawn) — inhibition (PPO3; enzyme activity, inhibitor; 25 µg/mL): 21%
Cc1ccc2c(c1Br)C(O)(CC(=O)c1ccc3c(c1)OCO3)C(=O)N2 (stereo not drawn) — inhibition (UAP1 (Homo sapiens, UniProt Q16222); enzyme activity, HPAEC; concentration not given): no inhibition
C[C@]12CCC[C@H]1[C@@H]1CCc3c(cc(I)c(O)c3I)[C@H]1CC2 — inhibition (AKR1C1; enzyme activity, inhibitor, absorbance; 10 µM, pH 9): 17.5%
C[C@@H]1O[C@@H](OCc2cc(O)c3c(c2)[C@](O)([C@@H]2O[C@H](CO)[C@@H](O)[C@H](O)[C@H]2O)c2cccc(O)c2C3=O)[C@H](O)[C@H](O)[C@H]1O — inhibition (IDO1; kynurenine formation; 100 µM): 63 ± 1.84%
N=C(N)SCc1ccc(CSC(=N)N)cc1 — inhibition (IDO1; enzyme activity, inhibitor, biochemical; concentration not given): inactive
C#CCSc1nc(Sc2nnnn2-c2ccccc2)c2nnn(Cc3ccccc3Cl)c2n1 — inhibition (Cyclin-dependent kinase 7, with cyclin H (CDK7, Homo sapiens, UniProt P50613); enzyme activity, inhibitor; 10 µM): < 15%
Cc1ccc(C2=Nc3ccccc3SC(c3ccc(Cl)cc3)C2)cc1 (stereo not drawn) — inhibition (PPO3; enzyme activity, inhibitor; 25 µg/mL): 34%
O=C(O[C@H](CO)C(F)(F)F)N1C[C@@H]2[C@H](C1)[C@H]2c1ccn(-c2ccc(F)nc2)n1 — inhibition (SLC6A2 (Homo sapiens, UniProt P23975); 10 µM): > 50%
CCCCCCOc1ccc(C2CC(c3ccc(C)cc3)=Nc3ccccc3S2)cc1OC (stereo not drawn) — inhibition (PPO3; enzyme activity, inhibitor; 25 µg/mL): 19%
COc1ccc(N2C(=O)CSC2c2cccc(Br)c2)c(OC)c1 (stereo not drawn) — inhibition (act2/arp2 (Schizosaccharomyces pombe, UniProt P32390+Q9UUJ1); actin polymerization, pyrenyl-actin; concentration not given): no inhibition
O=C(CCCCCCN1CCN(c2ccc(Nc3ncc(F)c(-c4cn(C5CCCC5)nn4)n3)cc2)CC1)NO — inhibition (HDAC11 (Homo sapiens, UniProt Q96DB2); enzyme activity, inhibitor; 500 nM): no effect
C[C@@]12CC[C@@H]3c4ccc(O)c(I)c4CC[C@H]3[C@@H]1CCC2=O — inhibition (AKR1C1; enzyme activity, inhibitor, absorbance; 10 µM, pH 9): 2.3%
COc1cc2ncc3c(c2cc1-c1cnn(C)c1)n(-c1ccc(C#N)cc1F)c(=O)n3C — inhibition (FMS kinase (CSF1R) Y969C; enzyme activity, inhibitor; 1 µM): > 50%
COc1ccc2c(c1)CC[C@@H]1[C@@H]2CC[C@@]2(C)C(=O)CC[C@@H]12 — inhibition (AKR1C1; enzyme activity, inhibitor, absorbance; 10 µM, pH 9): 1.3%
Cn1nc(-c2ccc(Cl)cc2)c2cc(C(=O)NCCCN3CCCC3)sc21 — inhibition (RAD51 (Homo sapiens, UniProt Q06609); D-loop formation; 10 x IC50, with: Ca2+ 1 mM; baseline: DMSO): > 2 fold
C[C@]12CC[C@@H]3c4ccc(O)cc4CC[C@H]3[C@@H]1CCC2=O — inhibition (AKR1C1; enzyme activity, inhibitor, absorbance; 100 µM, pH 9): 10%
C[N+](C)(CC(=O)Nc1cccc(C(F)(F)F)c1)CC(=O)Nc1cccc(C(F)(F)F)c1 — inhibition (TRPV1; calcium influx, inhibitor; HeLa cells transfected; 1 µM, with: 5 µM capsaicin): no inhibition
COc1ccc2c(c1Br)CC[C@@H]1[C@@H]2CC[C@@]2(C)C(=O)CC[C@@H]12 — inhibition (AKR1C1; enzyme activity, inhibitor, absorbance; 10 µM, pH 9): 12.9%
Cc1cc(O)c2c(c1)[C@H]([C@@H]1O[C@H](CO)[C@@H](O)[C@H](O)[C@H]1O)c1cccc(O)c1C2=O — inhibition (IDO1; kynurenine formation; 100 µM): 61.5 ± 1.67%
Cc1cc2c(NC(=O)N[C@@H]3CC(C)(C)Oc4cc(C(F)(F)F)ccc43)cccc2cn1 — inhibition (TRPV1; acid-evoked calcium influx, antagonist; HEK293, human; 11.25 µM, pH 5): 76.2 ± 6.6%

Some of these lines once more:
CC(=O)c1cnc(N)nc1N1CC[C@H]1c1nn2ccc(Cl)c2c(=O)n1-c1ccccc1 — inhibition (CACNA1C (Homo sapiens, UniProt Q13936); ion current, inhibitor; 3 µM): < 10%
OB(O)c1cnn(-c2cc(Cl)ncn2)c1 — inhibition (PRE2 (Saccharomyces cerevisiae S288c, UniProt P30656); 20S proteasome activity; 100 µM, with: Suc-LLVY-AMC): ≤ 20%
NCCC(=O)N[C@@H](Cc1c[nH]c2ccccc12)C(=O)N[C@@H](Cc1ccc(Cl)cc1)C(N)=O — inhibition (Ephrin type-A receptor 4, ectodomain (Epha4, Mus musculus, UniProt Q03137); ephrin-A5 binding, antagonist, ELISA; 500 µM, with: ephrin-A5-AP): 45%
C[C@@H](N)C1CCN(S(=O)(=O)c2cccc3c(=O)[nH]ccc23)CC1 — inhibition (GRK1 (Homo sapiens, UniProt Q15835); cell-free assay, competition with immobilised ligand; 10 µM): > 95%
CC[C@H](C)[C@H](NC(=O)[C@H](CCCNC(=N)N)NC(=O)[C@H](CCCCN)NC(=O)[C@@H]1CCCN1C(=O)[C@@H]1CCCN1CCCN(CC[C@H](N)C(=O)O)C[C@H]1O[C@@H](n2cnc3c(N)ncnc32)[C@H](O)[C@@H]1O)C(=O)N[C@@H](C)C(N)=O — inhibition (SETD7; enzyme activity, inhibitor; 33 µM): < 20%
C[C@]12CC[C@@H]3c4cc(Br)c(O)cc4CC[C@H]3[C@@H]1CCC2=O — inhibition (AKR1C1; enzyme activity, inhibitor, absorbance; 10 µM, pH 9): 51.2%
CCCC[C@@H]1NC(=O)[C@H]([C@@H](C)O)NC(=O)[C@H](CCCNC(=N)N)NC(=O)CNC(=O)CC[C@@H](C(=O)N[C@@H](C)C(=O)N[C@@H](CCCNC(=N)N)C(=O)N[C@@H](CCCCN)C(=O)N[C@@H](CO)C(=O)N[C@H](C(=O)NCC(=O)NCC(N)=O)[C@@H](C)O)NC(=O)[C@H](CCC(N)=O)NC1=O — inhibition (SETD7; enzyme activity, inhibitor, MALDI-TOF MS; 50 µM, 10 min preincubation, 30 min, pH 8, 37 °C, enzyme 500 nM, with: H3 1-21 peptide, SAM 30 µM): 100%
